Measured values of several laboratories.
Lines come from different studies, so protocols differ.

With CC[C@H](C)[C@@H]1NC(=O)[C@H](CO)NC(=O)[C@H](CCCCN)NC(=O)[C@@H]2CSSC[C@@H](C(=O)N[C@@H](Cc3ccc(O)cc3)C(N)=O)NC(=O)[C@H](CCCCN)NC(=O)[C@@H]3CSSC[C@H](NC(=O)[C@H](CCCNC(=N)N)NC(=O)[C@H](CC(C)C)NC(=O)[C@H](CC(=O)O)NC(=O)[C@H](CC(=O)O)NC(=O)[C@H](CCC(=O)O)NC(=O)[C@H](CC(N)=O)NC(=O)[C@H](Cc4c[nH]c5ccccc45)NC(=O)C(C)(CC)NC(=O)CNC(=O)[C@H](CC(N)=O)NC(=O)[C@@H](NC(=O)CNC(=O)[C@H](Cc4ccccc4)NC(=O)CN)CSSC[C@H](NC(=O)[C@H](Cc4ccc(O)cc4)NC(=O)CNC(=O)CNC(=O)[C@H](CCCCN)NC(=O)[C@H](Cc4ccc(O)cc4)NC(=O)[C@H]4CCCN4C(=O)[C@@H]4CCCN4C1=O)C(=O)N[C@@H](C)C(=O)N[C@@H](CCCCN)C(=O)N1CCC[C@@H]1C(=O)NCC(=O)N[C@@H](Cc1ccccc1)C(=O)N[C@@H](C(C)C)C(=O)N3)C(=O)N[C@@H](Cc1c[nH]cn1)C(=O)N[C@@H](CC(N)=O)C(=O)N[C@@H](Cc1c[nH]cn1)C(=O)N2 (stereo partly drawn) the MIC was 1 µM (Streptococcus pneumoniae; broth microdilution; BS-442; 18 h).
With O=C(c1ccccc1O)c1[nH]c(Cl)c(Cl)c1-n1c(C(=O)c2ccccc2O)cc(Cl)c1Cl the MIC was over 64 µM (Providencia alcalifaciens; ATCC 9886).
The MIC of O=c1n(CCNCCOS(=O)(=O)c2ccccc2)c(=O)n(S(=O)(=O)c2ccccc2)c(=O)n1S(=O)(=O)c1ccccc1 is reported as 4 µg/mL (Proteus mirabilis; microbial growth, broth dilution).
The MIC of CC[C@H](C)[C@H](N)C(=O)N[C@@H](CCCNC(=N)N)C(=O)N[C@H](C(=O)N[C@@H](Cc1c[nH]c2ccccc12)C(=O)N[C@@H](Cc1ccccc1)C(=O)N[C@H](C(=O)N[C@@H](CCCCN)C(=O)N[C@H](C(=O)N[C@@H](CCCNC(=N)N)C(=O)N[C@@H](CCCCN)C(=O)N[C@@H](CCSC)C(=O)N[C@@H](CCCCN)C(=O)N[C@@H](C)C(=O)N[C@H](C(=O)N[C@@H](Cc1ccc(O)cc1)C(=O)N[C@@H](Cc1c[nH]cn1)C(N)=O)[C@@H](C)CC)C(C)C)[C@@H](C)CC)C(C)C is reported as 100 µM (Salmonella typhimurium; broth dilution; SL1344).
The MIC of CC[C@H](C)[C@@H]1NC(=O)[C@H](CCCNC(=N)N)NC(=O)[C@H]([C@@H](C)O)NC(=O)[C@H](C(C)C)NC(=O)[C@H](Cc2ccccc2)NC(=O)[C@H](C(C)C)NC(=O)[C@H](CCCNC(=N)N)NC(=O)[C@H](CCCNC(=N)N)NC(=O)[C@H](CCCNC(=N)N)NC(=O)[C@H](Cc2ccccc2)NC(=O)CNC(=O)[C@H](CCCCN)NC(=O)[C@@H](NC(=O)[C@H](CCCNC(=N)N)NC(=O)CNC(=O)CN)CSSC[C@@H](C(N)=O)NC1=O is reported as over 6 µM (Botrytis cinerea; resazurin; synthetic fungal medium; with: KCl 100 mM).
For CC1COC2=C1C(=O)C(=O)c1c2ccc2c1C(OC(=O)CNC(=O)C(N)CO)CCC2(C)C (mixture of isomers), the MIC was 63 µM (Cutibacterium acnes; GDMCC 1.243; 48 h, anaerobic).
The MIC of [O-][N+]1=C(c2ccsc2)C2=NCCCN2c2ccccc21 is reported as 2 to 4 µg/mL (Clostridioides difficile).
For CCCCCCCC(=O)NCCCC[C@H](NC(=O)CCCCCCC)C(=O)N[C@@H](CCCCNC(=O)CCCCCCC)C(=O)NCC(=O)NCC(=O)NCC(=O)N[C@@H](CS)C(=O)N[C@@H](CCCNC(=N)N)C(=O)N[C@@H](CCCCN)C(=O)N1CCC[C@H]1C(=O)N[C@@H](CS)C(=O)N[C@@H](CCCNC(=N)N)C(=O)N[C@@H](CCCCN)C(=O)N1CCC[C@H]1C(=O)N[C@@H](CS)C(=O)N[C@@H](CCCNC(=N)N)C(=O)N[C@@H](CCCCN)C(=O)N1CCC[C@H]1C(N)=O, the MIC was 8 µM (Candida tropicalis; broth microdilution; CGMCC 2.197, RPMI-1640; 48 h, 30 °C).
With OC(Cn1cncn1)(Cn1cncn1)c1ccc(F)cc1F the MIC was 64 µg/mL (Saccharomyces cerevisiae; S288c wild type).
With CC[C@H](C)[C@H](NC(=O)[C@H](CCCCN)NC(=O)[C@H](CCCCN)NC(=O)[C@H](Cc1ccccc1)NC(=O)[C@H](Cc1ccccc1)NC(=O)[C@H](CCCCN)NC(=O)[C@H](CCCCN)NC(=O)[C@H](Cc1ccccc1)NC(=O)[C@H](CCCNC(=N)N)NC(=O)[C@@H](N)CCCCN)C(=O)N[C@@H](CCCCN)C(=O)N[C@@H](CCCCN)C(=O)N[C@@H](CO)C(=O)N[C@H](C(=O)N[C@@H](CCCCN)C(=O)N[C@@H](CCCCN)C(=O)N[C@@H](CCCNC(=N)N)C(=O)N[C@H](C(=O)N[C@@H](CCCCN)C(=O)N[C@@H](CCCCN)C(=O)N[C@@H](CC(C)C)C(=O)N[C@@H](Cc1ccccc1)C(=O)N[C@@H](CCCCN)C(=O)N[C@@H](CCCCN)C(=O)N1CCC[C@H]1C(=O)N[C@@H](CCCNC(=N)N)C(=O)N[C@H](C(=O)N[C@H](C(=O)N1CCC[C@H]1C(=O)N[C@H](C(=O)N[C@@H](CO)C(=O)N[C@H](C(=O)N1CCC[C@H]1C(=O)N[C@@H](Cc1ccccc1)C(=O)O)[C@@H](C)CC)[C@@H](C)CC)[C@@H](C)CC)C(C)C)C(C)C)C(C)C the MIC was 4 µg/mL (Escherichia coli; broth microdilution; E23 clinical isolate; 20 h).
CC[C@H](C)[C@H](NC(=O)[C@H](CCCNC(=N)N)NC(=O)[C@H](CO)NC(=O)[C@H](Cc1ccc(O)cc1)NC(=O)[C@@H](NC(=O)[C@@H](NC(=O)[C@H](C)NC(=O)CNC(=O)[C@H](CCCCN)NC(=O)[C@H](CCCCN)NC(=O)CCNC(=O)CCCCCNC(=O)[C@H](CCCNC(=N)N)NC(=O)CCCCCNC(=O)[C@H](CCCNC(=N)N)NC(=O)[C@H](CCCNC(=N)N)NC(=O)CCCCCNC(=O)[C@H](CCCNC(=N)N)NC(=O)[C@H](CCCNC(=N)N)NC(=O)CCCCCNC(=O)[C@H](CCCNC(=N)N)NC(=O)[C@H](CCCNC(=N)N)NC(=O)CCCCCNC(=O)[C@@H](N)CCCNC(=N)N)C(C)C)[C@@H](C)O)C(=O)N[C@@H](CO)C(=O)NCC(=O)N[C@@H](CCC(N)=O)C(=O)N[C@@H](Cc1ccc(O)cc1)C(=O)N[C@@H](CCCCN)C(=O)O has an MIC of 6 µM (Escherichia coli; ATCC 25922, Mueller-Hinton broth; with: FeCl3 4 µM).
For CC[C@H](C)[C@@H]1NC(=O)[C@H](CO)NC(=O)C(C)(CCCCN)NC(=O)[C@@H]2CSSC[C@@H](C(=O)N[C@@H](Cc3ccc(O)cc3)C(N)=O)NC(=O)[C@H](CCCCN)NC(=O)[C@@H]3CSSC[C@H](NC(=O)[C@H](CCCNC(=N)N)NC(=O)C(C)(CC(C)C)NC(=O)[C@H](CC(=O)O)NC(=O)[C@H](CC(=O)O)NC(=O)[C@H](CCC(=O)O)NC(=O)[C@H](CC(N)=O)NC(=O)[C@H](Cc4c[nH]c5ccccc45)NC(=O)C(C)(CC)NC(=O)CNC(=O)[C@H](CC(N)=O)NC(=O)[C@@H](NC(=O)CNC(=O)[C@H](Cc4ccccc4)NC(=O)CN)CSSC[C@H](NC(=O)[C@H](Cc4ccc(O)cc4)NC(=O)CNC(=O)CNC(=O)[C@H](CCCCN)NC(=O)[C@H](Cc4ccc(O)cc4)NC(=O)[C@H]4CCCN4C(=O)[C@@H]4CCCN4C1=O)C(=O)N[C@@H](C)C(=O)N[C@@H](CCCCN)C(=O)N1CCC[C@@H]1C(=O)NCC(=O)N[C@@H](Cc1ccccc1)C(=O)N[C@@H](C(C)C)C(=O)N3)C(=O)N[C@@H](Cc1c[nH]cn1)C(=O)NC(C)(C)C(=O)N[C@@H](Cc1c[nH]cn1)C(=O)N2 (stereo partly drawn), the MIC was 1 µM (Streptococcus pneumoniae; broth microdilution; 19F; 18 h).
For CC[C@H](C)[C@H](N)C(=O)N[C@@H](CCCNC(=N)N)C(=O)N[C@H](C(=O)N[C@@H](Cc1c[nH]c2ccccc12)C(=O)N[C@@H](CCCCN)C(=O)N[C@@H](CCCCN)C(=O)N[C@H](C(=O)N[C@H](C(=O)N[C@@H](CCCNC(=N)N)C(=O)N[C@@H](CCCCN)C(=O)N[C@@H](Cc1c[nH]c2ccccc12)C(=O)N[C@@H](CCCCN)C(=O)N[C@@H](C)C(=O)N[C@H](C(=O)N[C@@H](Cc1c[nH]c2ccccc12)C(=O)N[C@@H](Cc1c[nH]cn1)C(N)=O)[C@@H](C)CC)C(C)C)[C@@H](C)CC)C(C)C, the MIC was 25 µM (Salmonella typhimurium; broth dilution; SL1344).
For COc1ccc(C2=[N+]([O-])c3ccccc3N3CCCN=C23)cc1, the MIC was 0.25 to 8 µg/mL (Clostridioides difficile).
For CC(=O)N1CCN(c2ccc(OCC3COC(Cn4ccnc4)(c4ccc(Cl)cc4Cl)O3)cc2)CC1 (stereo not drawn), the MIC was 8 µM (Candida albicans; CGMCC 2.209; 48 h, drug alone).
The MIC of CC[C@H](C)[C@H](NC(=O)[C@H](Cc1c[nH]c2ccccc12)NC(=O)[C@H](Cc1ccc(O)cc1)NC(=O)[C@H](CCCCN)NC(=O)[C@H](CC(C)C)NC(=O)[C@H](CO)NC(=O)[C@@H](N)Cc1ccccc1)C(=O)N[C@@H](CCCNC(=N)N)C(=O)N[C@@H](Cc1ccc(O)cc1)C(=O)N[C@@H](CCCCN)C(=O)N[C@@H](CCCNC(=N)N)C(=O)N[C@@H](CCC(N)=O)C(=O)NCC(=O)N[C@@H](C)C(=O)N[C@@H](C)C(=O)N[C@@H](CCCNC(=N)N)C(=O)N[C@@H](Cc1ccccc1)C(N)=O is reported as 25 µM (Salmonella typhimurium; broth dilution; SL1344).
C[N+]1=C2C(c3ccccc3)=[N+]([O-])c3ccccc3N2CCC1 gave an MIC of 8 to 64 µg/mL (Clostridioides difficile).
With CC(C)Oc1ccc(B(O)O)c(F)n1 the MIC was 2050 µg/mL (Citrobacter freundii; bacterial growth; AmpC overproducer clinical isolate; without cefotaxime).

For quick reference, copied from above:
For CCCCCCCC(=O)NCCCC[C@H](NC(=O)CCCCCCC)C(=O)N[C@@H](CCCCNC(=O)CCCCCCC)C(=O)NCC(=O)NCC(=O)NCC(=O)N[C@@H](CS)C(=O)N[C@@H](CCCNC(=N)N)C(=O)N[C@@H](CCCCN)C(=O)N1CCC[C@H]1C(=O)N[C@@H](CS)C(=O)N[C@@H](CCCNC(=N)N)C(=O)N[C@@H](CCCCN)C(=O)N1CCC[C@H]1C(=O)N[C@@H](CS)C(=O)N[C@@H](CCCNC(=N)N)C(=O)N[C@@H](CCCCN)C(=O)N1CCC[C@H]1C(N)=O, the MIC was 8 µM (Candida tropicalis; broth microdilution; CGMCC 2.197, RPMI-1640; 48 h, 30 °C).
With OC(Cn1cncn1)(Cn1cncn1)c1ccc(F)cc1F the MIC was 64 µg/mL (Saccharomyces cerevisiae; S288c wild type).
